Published values gathered from unrelated publications.
Compare with care: the assays were run in different laboratories.
T1: G-quadruplex DNA, hybrid-1 monomeric G4 (Homo sapiens); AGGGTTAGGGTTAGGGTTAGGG
T2: G-quadruplex DNA, c-KIT promoter (Homo sapiens); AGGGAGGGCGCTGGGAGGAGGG
T3: G-quadruplex DNA, hairpin duplex plus G4 (Homo sapiens); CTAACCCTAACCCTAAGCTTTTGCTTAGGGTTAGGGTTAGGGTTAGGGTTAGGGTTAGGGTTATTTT
T4: G-quadruplex DNA dimer (Homo sapiens); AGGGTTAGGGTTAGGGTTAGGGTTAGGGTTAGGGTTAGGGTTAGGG
T5: G-quadruplex DNA, telomeric (Homo sapiens); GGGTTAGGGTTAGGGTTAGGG
T6: G-quadruplex DNA (Streptococcus pneumoniae); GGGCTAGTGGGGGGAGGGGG
T7: G-quadruplex DNA (Homo sapiens); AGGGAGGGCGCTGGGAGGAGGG
T8: G-quadruplex DNA, parallel, snap-back loop (Homo sapiens); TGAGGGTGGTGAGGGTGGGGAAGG
T9: G-quadruplex DNA, hybrid fold (Homo sapiens); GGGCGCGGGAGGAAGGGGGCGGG
T10: G-quadruplex DNA (Homo sapiens); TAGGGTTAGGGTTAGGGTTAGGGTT
T11: G-quadruplex DNA, monomeric G-quadruplex; GGTTAGGTTAGGTTAGG
T12: G-quadruplex DNA, G-quadruplex (Homo sapiens); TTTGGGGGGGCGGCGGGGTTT
T13: G-quadruplex DNA G13T (Homo sapiens); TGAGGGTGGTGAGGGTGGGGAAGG
T14: G-quadruplex DNA (Homo sapiens); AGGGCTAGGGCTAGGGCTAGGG

| SMILES | target | assay | conditions | scale | endpoint | value |
| --- | --- | --- | --- | --- | --- | --- |
| CN(C)CCCN1C(=O)c2ccc3c4c(c(NCCCCCCCNc5cc6c7c(ccc8c7c5C(=O)N(CCCN(C)C)C8=O)C(=O)N(CCCN(C)C)C6=O)cc(c24)C1=O)C(=O)N(CCCN(C)C)C3=O | T1, G-quadruplex DNA, hybrid-1 monomeric G4 (Homo sapiens) | ITC | pH 7.0, 25 °C, KCl 100 mM |  | Kd | 260 nM |
| OCc1c(-c2ccccc2)nc2n1ccc1nc(-c3ccccc3)c(C=NNC3=NCCN3)n12 | T2, G-quadruplex DNA, c-KIT promoter (Homo sapiens) | thiazole orange displacement, competitor, fluorescent intercalator displacement | KCl 20 mM |  | binding | binds weakly |
| [N-]=[N+]=NCCOc1cc(C(=O)Nc2cc(OCCN)c3ccccc3n2)nc(C(=O)Nc2cc(OCCN)c3ccccc3n2)c1 | T3, G-quadruplex DNA, hairpin duplex plus G4 (Homo sapiens) | SPR | pH 7.4, 25 °C, KCl 200 mM |  | Kd | 220 nM |
| CCN(CC)c1ccc2cc(-c3nc4c5cccnc5c5ncccc5c4[nH]3)c(=O)oc2c1.NCCN.[Pt+2] | T4, G-quadruplex DNA dimer (Homo sapiens) | CD spectroscopy | pH 7.0, NaCl 100 mM |  | binding | binds weakly |
| CN(C)CCCNc1cc2c3c(c(NCCCCCCCNc4cc5c6c(ccc7c6c4C(=O)N(CCCN(C)C)C7=O)C(=O)N(CCCN(C)C)C5=O)cc4c3c1C(=O)N(CCCN(C)C)C4=O)C(=O)N(CCCN(C)C)C2=O | T1, G-quadruplex DNA, hybrid-1 monomeric G4 (Homo sapiens) | ITC | pH 7.0, 25 °C, KCl 100 mM |  | Kd | 520 nM |
| CN1C(=C(Cc2ccccc2)c2sc3ccccc3[n+]2C)C=Cc2ccccc21 | T5, G-quadruplex DNA, telomeric (Homo sapiens) | fluorescence titration | pH 7.4, K+ 60 mM |  | Kd | 1770 nM |
| CN(C)CCCOc1cc(C(=O)NCc2cn(Cc3c4ccccc4cc4ccccc34)nn2)cc(C(=O)NCc2cn(Cc3c4ccccc4cc4ccccc34)nn2)c1 | T6, G-quadruplex DNA (Streptococcus pneumoniae) | FRET melting | 5 µM, pH 7.4, potassium cacodylate 60 mM | reference: DNA without compound, higher = more stabilisation | melting temperature shift | 10 °C |
| CN(C)c1ccc2c(c1)[Si](C)(C)C1=CC(=[N+](C)C)C=CC1=C2c1cc(C(=O)NCCCCCC(=O)NCCOc2cc(C(=O)Nc3cc(OCCN4CCCC4)c4ccccc4n3)nc(C(=O)Nc3cc(OCCN4CCCC4)c4ccccc4n3)c2)ccc1C(=O)[O-] | T7, G-quadruplex DNA (Homo sapiens) | fluorescence titration | pH 7.4, KCl 100 mM, apparent, light-up |  | Kd | 1000 nM |
| C[n+]1cccc2cc(/C=N/NC(=O)c3ccc4ccc5ccc(C(=O)N/N=C/c6ccc7c(ccc[n+]7C)c6)nc5c4n3)ccc21 | T8, G-quadruplex DNA, parallel, snap-back loop (Homo sapiens) | Cy5 fluorescence quenching titration | 2 nM, pH 7.2, KCl 100 mM |  | Kd | 14.8 nM |
| CCn1c(-c2cccc(-c3nc4ccccc4n3CC)n2)nc2ccccc21.[C-]#Cc1ccc(C[N+](C)(C)C)cc1.[Pt+2] | T9, G-quadruplex DNA, hybrid fold (Homo sapiens) | UV melting |  |  | binding | binds weakly |
| O=C(N/N=C/c1ccc(C[n+]2ccccc2)cc1)c1ccc2ccc3ccc(C(=O)N/N=C/c4ccc(C[n+]5ccccc5)cc4)nc3c2n1 | T10, G-quadruplex DNA (Homo sapiens) | fluorescence melting | 0.4 µM, pH 7.2, KCl 100 mM |  | change in melting temperature | > 30 °C |
| Cc1ccc(Cn2cc3c(-c4ccc5c(c4)OCO5)nnc-3c3cc4c(cc32)OCO4)cc1 | T11, G-quadruplex DNA, monomeric G-quadruplex | fluorescence titration | KCl 100 mM |  | Kd | 12700 nM |
| C[n+]1ccc(/C=N/NC(=O)c2cccc(C(=O)N/N=C/c3cc[n+](C)c4ccccc34)n2)c2ccccc21 | T8, G-quadruplex DNA, parallel, snap-back loop (Homo sapiens) | Cy5 fluorescence quenching titration | 2 nM, pH 7.2, KCl 100 mM |  | Kd | 7.5 nM |
| CCC1=C(C)c2cc3[nH]c(cc4nc(cc5[nH]c(cc1n2)c(C)c5CCC(=O)NCCOCCOCC(=O)NCCN(CC(=O)N[C@H](CCCCN)C(=O)N[C@H](CCCCN)C(N)=O)C(=O)Cn1cnc2c(=O)[nH]c(N)nc21)C(CCC(=O)O)=C4C)c(C)c3CC | T12, G-quadruplex DNA, G-quadruplex (Homo sapiens) | fluorescence titration | pH 7.4, KCl 50 mM, single-site fit |  | Kd | 10.2 nM |
| C[n+]1cc(C(=O)Nc2ccc3[nH]cc(Cc4c[nH]c5ccc(NC(=O)CCC[N+]6(C)CC[N+](C)(C)CC6)cc45)c3c2)cc2ccccc21 | T13, G-quadruplex DNA G13T (Homo sapiens) | microscale thermophoresis | KCl 100 mM |  | Kd | 3050 nM |
| C[n+]1ccc(/C=N/NC(=O)c2cncc(C(=O)N/N=C/c3cc[n+](C)c4ccccc34)n2)c2ccccc21 | T14, G-quadruplex DNA (Homo sapiens) | UV melting | 6 µM |  | change in melting temperature | 25 °C |
